{"data": "Results of several laboratories", "note": "Each line is one published result; not all experiments were run side by side. ± gives the spread as reported."}
{"SMILES": "C#CCCCOP(=O)(O)Oc1c2c(c(OP(=O)(O)OCCCC#C)c3c1C1CC3c3cc4c(cc31)C1CC4c3ccccc31)C1CC2c2cc3c(cc21)C1CC3c2ccccc21", "organism": "measles virus", "assay": "viral infection, flow cytometry", "system": "A549, vaccine strain GFP", "setting": "2 days, virus pre-incubated 30 min 37 °C", "quantity": "IC50", "result": "30.1 µM"}
{"SMILES": "C[C@@](O)(C(F)F)[C@H](NC(=O)c1ccc(C#CC#CC2CC2)cc1)C(=O)NO", "organism": "Neisseria gonorrhoeae", "assay": "agar dilution", "system": "susceptible and MDR", "quantity": "MIC50", "result": "0.016 mg/L"}
{"SMILES": "CN[C@@H]1[C@H](O)[C@H](NC)[C@H]2O[C@]3(O)[C@H](O[C@@H]2[C@H]1O)O[C@H](C)C[C@]3(O)CNCc1ccc(F)cc1", "organism": "Neisseria gonorrhoeae", "system": "ATCC 49226", "setting": "40 µg per disc", "quantity": "inhibition zone diameter", "result": "0 mm"}
{"SMILES": "CC[C@H](C)[C@H](NC(=O)[C@H](Cc1ccc(O)cc1)NC(=O)[C@H](CCCCN)NC(=O)[C@H](CCCCN)NC(=O)[C@H](CCC(N)=O)NC(=O)[C@H](C)N)C(=O)N[C@@H](CO)C(=O)N[C@@H](Cc1ccc(O)cc1)C(=O)NCC(=O)N[C@@H](C)C(=O)N[C@@H](CCSC)C(=O)N[C@@H](CCCNC(=N)N)C(=O)N[C@@H](CCCNC(=N)N)C(=O)N[C@@H](CC(N)=O)C(=O)N[C@@H](CO)C(=O)N[C@H](C(=O)N1CCC[C@H]1C(=O)N[C@H]1CSSC[C@@H](C(=O)N[C@@H](CCC(N)=O)C(=O)N[C@@H](CCCNC(=N)N)C(=O)NCC(=O)N[C@@H](C)C(=O)N[C@@H](CCC(N)=O)C(=O)N[C@@H](C)C(=O)N[C@@H](CC(N)=O)C(=O)N2CCC[C@H]2C(=O)N[C@@H](Cc2ccc(O)cc2)C(=O)N[C@@H](CO)C(=O)N[C@@H](CCCNC(=N)N)C(=O)NCC(=O)N[C@H]2CSSC[C@@H](C(=O)N[C@@H](CCCNC(=N)N)C(=O)N[C@@H](CCCNC(=N)N)C(=O)O)NC(=O)[C@H](CCCNC(=N)N)NC(=O)[C@H]([C@@H](C)O)NC(=O)[C@H]([C@@H](C)CC)NC(=O)[C@H]([C@@H](C)O)NC(=O)[C@H](CO)NC2=O)NC(=O)[C@H](CC(N)=O)NC(=O)[C@H](Cc2ccc(O)cc2)NC(=O)[C@H](Cc2ccc(O)cc2)NC(=O)[C@H](CO)NC(=O)[C@H](C)NC(=O)CNC(=O)[C@H](CCCNC(=N)N)NC(=O)[C@H](CCCNC(=N)N)NC(=O)[C@H](CO)NC1=O)C(C)C", "organism": "Arabidopsis thaliana", "assay": "FITC/TRITC ratio imaging", "system": "fer-4, root hairs", "setting": "5 µM", "quantity": "extracellular pH increase", "result": 0.48}
{"SMILES": "CN(C)CCNC(=O)/C=C/[C@H](Cc1ccccc1)Nc1ccnc2cc(Cl)ccc12", "organism": "Plasmodium berghei", "system": "NAT atovaquone-resistant, ICR mouse infected", "setting": "10 mg/kg, 2 days post infection", "quantity": "body weight", "result": "27.3 ± 1.64 g"}
{"SMILES": "CC[C@H](C)[C@H](NC(=O)[C@H](CC(C)C)NC(=O)[C@@H](NC(=O)[C@H](Cc1ccc(O)cc1)NC(=O)CNC(=O)CNC(=O)[C@H](CCCNC(=N)N)NC(=O)[C@H](CC(C)C)NC(=O)[C@H](CCCCN)NC(=O)[C@H](CC(C)C)NC(=O)[C@H](CCCCN)NC(=O)[C@H](CS)NC(=O)[C@H](CC(C)C)NC(=O)[C@H](Cc1c[nH]c2ccccc12)NC(=O)CNC(=O)[C@H](CCCCN)NC(=O)[C@H](CS)NC(=O)[C@@H]1CCCN1C(=O)[C@H](CCCCN)NC(=O)[C@H](CCCNC(=N)N)NC(=O)[C@H](CCCNC(=N)N)NC(=O)[C@H](CO)NC(=O)[C@@H](N)CO)[C@@H](C)O)C(=O)NCC(=O)N[C@@H](CO)C(=O)N[C@@H](C)C(=O)N[C@H](C(=O)N[C@@H](CC(N)=O)C(=O)N[C@@H](CC(C)C)C(=O)N[C@@H](CC(N)=O)C(=O)N[C@@H](CCCNC(=N)N)C(=O)N1CCC[C@H]1C(=O)N[C@H](C(=O)N[C@@H](Cc1ccc(O)cc1)C(=O)N[C@H](C(=O)N[C@@H](CCCNC(=N)N)C(=O)N[C@@H](C)C(=O)O)C(C)C)[C@@H](C)O)[C@@H](C)O", "organism": "bacteria", "assay": "SYTOX Green uptake", "setting": "concentration not given", "quantity": "killing time", "result": "≤ 15 min"}
{"SMILES": "[O-][N+]1=C(c2ccsc2)C2=NCCCN2c2ccccc21", "organism": "Fusobacterium nucleatum", "assay": "microbial growth", "system": "ATCC25586", "quantity": "MIC", "result": "0.125 mg/L"}
{"SMILES": "CC[C@@H](C)[C@@H](NC(=O)[C@@H](C)NC(=O)[C@@H](CCCCN)NC(=O)[C@@H](CC(C)C)NC(=O)[C@@H](C)NC(=O)[C@H](NC(=O)[C@@H](Cc1c[nH]cn1)NC(=O)[C@@H](CC(C)C)NC(=O)[C@H](NC(=O)[C@H](NC(=O)[C@@H](CCCCN)NC(=O)[C@@H](CCCCN)NC(=O)[C@@H](C)NC(=O)[C@@H](CO)NC(=O)[C@@H](CCCCN)NC(=O)[C@@H](Cc1ccccc1)NC(=O)[C@H](NC(=O)[C@@H](CCCCN)NC(=O)[C@@H](CC(C)C)NC(=O)[C@@H](Cc1ccccc1)NC(=O)[C@@H](CO)NC(=O)[C@@H](CCCCN)NC(=O)[C@@H](Cc1c[nH]c2ccccc12)NC(=O)[C@@H](CCCCN)NC(C)=O)[C@H](C)O)[C@H](C)O)C(C)C)[C@H](C)O)C(=O)N[C@H](CO)C(=O)N[C@H](CO)C(N)=O", "organism": "Aspergillus nidulans", "system": "AZN 2867", "setting": "48 h, 30 °C", "quantity": "MIC90", "result": "50 mg/L"}
{"SMILES": "CC[C@H](C)[C@H](NC(=O)[C@H](CCCCN)NC(=O)[C@H](CCCCN)NC(=O)[C@H](CC(C)C)NC(=O)[C@H](CCCCN)NC(=O)[C@H](CCC(=O)O)NC(=O)[C@H](CCCCN)NC(=O)[C@@H](NC(=O)[C@H](CCCCN)NC(=O)[C@H](CC(N)=O)NC(=O)[C@H](CCCNC(=N)N)NC(=O)[C@H](Cc1ccccc1)NC(=O)[C@H](CCCCN)NC(=O)[C@H](CCCNC(=N)N)NC(=O)[C@H](CC(C)C)NC(=O)[C@H](CCCNC(=N)N)NC(=O)[C@H](CCCCN)NC(=O)[C@H](CCCNC(=N)N)NC(=O)[C@H](CC(C)C)NC(=O)CN)[C@@H](C)CC)C(=O)NCC(=O)N[C@@H](CCC(N)=O)C(=O)N[C@@H](CCCCN)C(=O)N[C@H](C(=O)N[C@@H](CCC(N)=O)C(=O)NCC(=O)N[C@@H](Cc1ccccc1)C(=O)N[C@H](C(=O)N1CCC[C@H]1C(=O)N[C@@H](CCCCN)C(=O)N[C@@H](CC(C)C)C(=O)N[C@@H](C)C(=O)N1CCC[C@H]1C(=O)N[C@@H](CCCNC(=N)N)C(=O)N[C@H](C(=O)N[C@@H](CC(=O)O)C(=O)N[C@@H](Cc1ccc(O)cc1)C(=O)O)[C@@H](C)O)C(C)C)[C@@H](C)CC", "organism": "Streptomyces griseus", "assay": "inhibition zone", "system": "NBRC 13350", "setting": "37 °C, LB agar, 154 mM NaCl", "quantity": "lethal concentration", "result": "6.36 µM"}
{"SMILES": "COc1ccc(N2C(=O)C=CC2=O)cc1", "organism": "Candida albicans", "assay": "qRT-PCR, refers to: HWP1", "setting": "1 µg/mL, 12 h", "quantity": "mRNA level", "result": "decreased"}
{"SMILES": "CC[C@H](C)[C@H](NC(=O)[C@H](CCCCN)NC(=O)[C@H](CCCCN)NC(=O)[C@H](CC(C)C)NC(=O)[C@H](CCCCN)NC(=O)[C@H](CCC(=O)O)NC(=O)[C@H](CCCCN)NC(=O)[C@@H](NC(=O)[C@H](CCCCN)NC(=O)[C@H](CC(N)=O)NC(=O)[C@H](CCCNC(=N)N)NC(=O)[C@H](Cc1ccccc1)NC(=O)[C@H](CCCCN)NC(=O)[C@H](CCCNC(=N)N)NC(=O)[C@H](CC(C)C)NC(=O)[C@H](CCCNC(=N)N)NC(=O)[C@H](CCCCN)NC(=O)[C@H](CCCNC(=N)N)NC(=O)[C@H](CC(C)C)NC(=O)[C@@H](N)CC(C)C)[C@@H](C)CC)C(=O)NCC(=O)N[C@@H](CCC(N)=O)C(=O)N[C@@H](CCCCN)C(=O)N[C@H](C(=O)N[C@@H](CCC(N)=O)C(=O)NCC(=O)N[C@@H](Cc1ccccc1)C(=O)N[C@H](C(=O)N1CCC[C@H]1C(=O)N[C@@H](CCCCN)C(=O)N[C@@H](CC(C)C)C(=O)N[C@H](C(=O)N1CCC[C@H]1C(=O)N[C@@H](CCCNC(=N)N)C(=O)N[C@H](C(=O)N[C@@H](CCC(=O)O)C(=O)N[C@@H](CO)C(=O)O)[C@@H](C)O)C(C)C)C(C)C)[C@@H](C)CC", "organism": "Bacillus subtilis", "assay": "inhibition zone", "system": "CGMCC 1.243", "quantity": "lethal concentration", "result": "1.8 µM"}
{"SMILES": "CC[C@H](C)[C@H](NC(=O)[C@H](CO)NC(=O)[C@H](CO)NC(=O)[C@H](Cc1ccccc1)NC(=O)CN)C(=O)N[C@@H](Cc1ccccc1)C(=O)N[C@@H](CCCNC(=N)N)C(N)=O", "organism": "Escherichia coli", "system": "ATCC 8739", "setting": "20% FBS", "quantity": "MBC", "result": "> 128 µM"}
{"SMILES": "CC[C@H](C)[C@H](NC(=O)[C@H](Cc1c[nH]c2ccccc12)NC(=O)[C@H](CCCNC(=N)N)NC(=O)[C@H](CCC(N)=O)NC(=O)[C@@H](NC(=O)[C@H](Cc1c[nH]c2ccccc12)NC(=O)[C@H](CCCNC(=N)N)NC(=O)[C@H](CCCNC(=N)N)NC(=O)[C@H](C)NC(=O)[C@H](C)NC(=O)[C@H](C)NC(=O)[C@@H](NC(=O)[C@H](CCCCN)NC(=O)[C@@H]1CCCN1C(=O)[C@H](CCCNC(=N)N)NC(=O)[C@H](Cc1c[nH]c2ccccc12)NC(=O)[C@H](CCCNC(=N)N)NC(=O)[C@H](CCCNC(=N)N)NC(=O)[C@@H](NC(=O)[C@H](Cc1c[nH]c2ccccc12)NC(=O)[C@H](CCCNC(=N)N)NC(=O)[C@H](CCC(N)=O)NC(=O)[C@@H](NC(=O)[C@H](Cc1c[nH]c2ccccc12)NC(=O)[C@H](CCCNC(=N)N)NC(=O)[C@@H](N)CCCNC(=N)N)C(C)C)[C@@H](C)CC)C(C)C)C(C)C)C(=O)N[C@@H](CCCNC(=N)N)C(=O)N[C@@H](CCCNC(=N)N)C(=O)N[C@@H](Cc1c[nH]c2ccccc12)C(=O)N[C@@H](CCCNC(=N)N)C(=O)N1CCC[C@H]1C(=O)N[C@@H](CCCCN)C(=O)N[C@H](C(N)=O)C(C)C", "organism": "Malassezia furfur", "system": "DTO 383-D9", "setting": "3 h", "quantity": "concentration for viability loss", "result": "0.6 µM"}
{"SMILES": "CC(C)C[C@H](NC(=O)[C@H](CC(=O)O)NC(=O)[C@H](CC(C)C)NC(=O)[C@H](CC(=O)O)NC(=O)CNC(=O)[C@@H]1CCCN1C(=O)[C@H](CCCCN)NC(=O)[C@H](CC(C)C)NC(=O)[C@H](Cc1c[nH]c2ccccc12)NC(=O)[C@@H]1CCCN1)C(=O)O", "organism": "dengue virus 2", "assay": "RT-qPCR", "system": "LLC-MK2, New Guinea C", "setting": "maximal non-toxic, 24 h", "how to read": "reference: untreated", "quantity": "viral RNA reduction", "result": "28.6 ± 16.3%"}
{"SMILES": "CN[C@@H]1[C@H](O)[C@H](NC)[C@H]2O[C@]3(O)[C@H](O[C@@H]2[C@H]1O)O[C@H](C)C[C@@]3(O)CNCc1ccccc1", "organism": "Haemophilus influenzae", "system": "ATCC 49247", "setting": "40 µg per disc", "quantity": "inhibition zone diameter", "result": "15.5 mm"}
